{"data": "Experimental data from different studies", "note": "Numbered parts are unrelated; each lists some results of a single study.", "chain of UniProt Q9H0K1 (whole entry, looked up)": "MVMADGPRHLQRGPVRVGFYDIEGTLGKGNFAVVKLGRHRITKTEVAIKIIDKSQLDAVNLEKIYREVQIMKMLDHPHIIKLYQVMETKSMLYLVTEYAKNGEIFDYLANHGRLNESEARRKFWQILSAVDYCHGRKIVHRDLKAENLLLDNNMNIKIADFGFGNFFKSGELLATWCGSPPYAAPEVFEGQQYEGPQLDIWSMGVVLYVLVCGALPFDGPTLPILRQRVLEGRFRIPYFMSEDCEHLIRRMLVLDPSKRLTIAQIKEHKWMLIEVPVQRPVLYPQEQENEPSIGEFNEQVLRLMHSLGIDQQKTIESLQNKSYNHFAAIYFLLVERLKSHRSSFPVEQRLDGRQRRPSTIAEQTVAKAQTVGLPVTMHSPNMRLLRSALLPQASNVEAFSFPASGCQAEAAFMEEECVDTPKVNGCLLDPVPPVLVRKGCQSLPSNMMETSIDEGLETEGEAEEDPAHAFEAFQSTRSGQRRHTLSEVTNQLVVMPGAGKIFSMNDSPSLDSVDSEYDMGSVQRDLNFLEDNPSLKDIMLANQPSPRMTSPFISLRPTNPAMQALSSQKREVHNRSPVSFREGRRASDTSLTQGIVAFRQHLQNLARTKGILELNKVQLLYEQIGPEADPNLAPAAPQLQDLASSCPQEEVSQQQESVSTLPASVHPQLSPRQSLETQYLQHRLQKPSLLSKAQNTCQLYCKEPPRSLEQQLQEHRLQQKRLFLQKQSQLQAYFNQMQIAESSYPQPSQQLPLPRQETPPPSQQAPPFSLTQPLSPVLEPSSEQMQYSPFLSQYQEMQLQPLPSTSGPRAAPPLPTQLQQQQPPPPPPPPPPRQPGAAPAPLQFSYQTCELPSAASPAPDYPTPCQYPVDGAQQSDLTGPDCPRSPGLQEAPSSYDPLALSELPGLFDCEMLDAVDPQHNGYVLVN", "chain of UniProt O75914 (whole entry, looked up)": "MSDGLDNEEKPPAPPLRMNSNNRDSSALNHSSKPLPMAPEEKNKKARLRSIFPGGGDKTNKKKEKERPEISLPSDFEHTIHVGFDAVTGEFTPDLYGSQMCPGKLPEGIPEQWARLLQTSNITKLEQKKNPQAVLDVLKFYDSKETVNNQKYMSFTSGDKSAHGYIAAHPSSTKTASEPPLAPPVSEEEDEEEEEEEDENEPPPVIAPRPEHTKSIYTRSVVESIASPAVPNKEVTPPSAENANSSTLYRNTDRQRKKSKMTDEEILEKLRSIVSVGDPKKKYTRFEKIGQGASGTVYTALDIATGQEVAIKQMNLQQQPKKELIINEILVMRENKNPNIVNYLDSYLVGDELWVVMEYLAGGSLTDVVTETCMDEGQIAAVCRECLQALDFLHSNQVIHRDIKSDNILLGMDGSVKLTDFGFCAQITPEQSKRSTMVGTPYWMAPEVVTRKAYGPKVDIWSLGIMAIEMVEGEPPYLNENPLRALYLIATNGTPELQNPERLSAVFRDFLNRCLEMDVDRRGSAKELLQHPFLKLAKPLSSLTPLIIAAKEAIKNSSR", "chain of UniProt Q14012 (whole entry, looked up)": "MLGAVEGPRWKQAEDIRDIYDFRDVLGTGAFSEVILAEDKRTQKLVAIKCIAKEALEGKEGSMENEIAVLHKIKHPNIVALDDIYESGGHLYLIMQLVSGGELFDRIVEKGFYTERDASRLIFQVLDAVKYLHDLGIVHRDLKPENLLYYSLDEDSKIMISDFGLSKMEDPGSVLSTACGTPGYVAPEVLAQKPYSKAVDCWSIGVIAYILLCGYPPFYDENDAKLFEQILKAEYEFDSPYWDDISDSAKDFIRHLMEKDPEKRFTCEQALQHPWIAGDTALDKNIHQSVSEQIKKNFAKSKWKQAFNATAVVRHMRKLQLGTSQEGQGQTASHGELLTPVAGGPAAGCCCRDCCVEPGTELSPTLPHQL", "chain of UniProt P48736 (whole entry, looked up)": "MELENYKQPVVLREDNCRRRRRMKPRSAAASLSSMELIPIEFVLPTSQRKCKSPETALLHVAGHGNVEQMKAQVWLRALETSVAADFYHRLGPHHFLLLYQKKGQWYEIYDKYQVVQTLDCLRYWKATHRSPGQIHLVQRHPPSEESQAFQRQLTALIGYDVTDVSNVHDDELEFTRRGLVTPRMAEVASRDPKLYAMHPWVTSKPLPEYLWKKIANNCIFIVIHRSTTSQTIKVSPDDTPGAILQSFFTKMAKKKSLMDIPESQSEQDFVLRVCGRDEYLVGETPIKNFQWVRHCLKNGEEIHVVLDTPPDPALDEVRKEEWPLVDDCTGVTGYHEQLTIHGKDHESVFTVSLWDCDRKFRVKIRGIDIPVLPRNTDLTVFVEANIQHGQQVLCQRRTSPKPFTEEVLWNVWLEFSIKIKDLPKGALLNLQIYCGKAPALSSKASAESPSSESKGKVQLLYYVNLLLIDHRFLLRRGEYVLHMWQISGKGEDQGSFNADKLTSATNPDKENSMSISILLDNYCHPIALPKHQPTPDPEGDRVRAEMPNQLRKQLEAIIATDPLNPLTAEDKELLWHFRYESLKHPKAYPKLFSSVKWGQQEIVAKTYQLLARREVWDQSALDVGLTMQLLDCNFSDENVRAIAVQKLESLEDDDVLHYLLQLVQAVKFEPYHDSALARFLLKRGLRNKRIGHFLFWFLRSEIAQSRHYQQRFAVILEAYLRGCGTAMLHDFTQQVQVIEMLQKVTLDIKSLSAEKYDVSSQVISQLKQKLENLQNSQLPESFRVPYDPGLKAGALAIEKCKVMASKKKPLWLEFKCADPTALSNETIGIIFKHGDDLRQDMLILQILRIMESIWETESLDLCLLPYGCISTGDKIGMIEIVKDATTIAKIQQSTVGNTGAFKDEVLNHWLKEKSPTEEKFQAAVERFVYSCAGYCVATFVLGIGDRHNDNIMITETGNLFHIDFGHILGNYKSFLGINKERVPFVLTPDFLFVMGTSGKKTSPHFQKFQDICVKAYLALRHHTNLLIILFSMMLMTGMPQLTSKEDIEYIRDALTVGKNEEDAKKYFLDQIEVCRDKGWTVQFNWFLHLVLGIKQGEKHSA", "chain of UniProt Q16584 (whole entry, looked up)": "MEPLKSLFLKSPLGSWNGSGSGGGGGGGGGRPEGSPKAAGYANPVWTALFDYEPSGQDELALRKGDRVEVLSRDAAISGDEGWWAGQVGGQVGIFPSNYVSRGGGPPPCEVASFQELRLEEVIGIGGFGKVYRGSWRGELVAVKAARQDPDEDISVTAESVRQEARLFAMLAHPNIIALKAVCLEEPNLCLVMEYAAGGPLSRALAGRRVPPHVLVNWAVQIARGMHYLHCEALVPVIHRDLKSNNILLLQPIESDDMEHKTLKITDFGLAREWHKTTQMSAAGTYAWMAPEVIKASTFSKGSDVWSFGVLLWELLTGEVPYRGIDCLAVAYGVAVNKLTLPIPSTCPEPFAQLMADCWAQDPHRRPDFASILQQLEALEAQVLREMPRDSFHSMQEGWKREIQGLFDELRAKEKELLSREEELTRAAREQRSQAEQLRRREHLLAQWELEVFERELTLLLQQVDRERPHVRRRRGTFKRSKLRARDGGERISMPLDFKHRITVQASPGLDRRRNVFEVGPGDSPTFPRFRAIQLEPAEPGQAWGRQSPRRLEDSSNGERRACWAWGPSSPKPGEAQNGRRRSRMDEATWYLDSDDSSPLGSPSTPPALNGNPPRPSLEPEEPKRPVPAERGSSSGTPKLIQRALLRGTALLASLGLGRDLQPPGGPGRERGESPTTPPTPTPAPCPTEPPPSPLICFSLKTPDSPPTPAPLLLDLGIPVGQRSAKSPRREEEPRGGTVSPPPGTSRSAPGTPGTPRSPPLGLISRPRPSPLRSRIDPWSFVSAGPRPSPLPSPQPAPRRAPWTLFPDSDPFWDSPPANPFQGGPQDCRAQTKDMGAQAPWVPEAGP", "chain of UniProt Q06418 (whole entry, looked up)": "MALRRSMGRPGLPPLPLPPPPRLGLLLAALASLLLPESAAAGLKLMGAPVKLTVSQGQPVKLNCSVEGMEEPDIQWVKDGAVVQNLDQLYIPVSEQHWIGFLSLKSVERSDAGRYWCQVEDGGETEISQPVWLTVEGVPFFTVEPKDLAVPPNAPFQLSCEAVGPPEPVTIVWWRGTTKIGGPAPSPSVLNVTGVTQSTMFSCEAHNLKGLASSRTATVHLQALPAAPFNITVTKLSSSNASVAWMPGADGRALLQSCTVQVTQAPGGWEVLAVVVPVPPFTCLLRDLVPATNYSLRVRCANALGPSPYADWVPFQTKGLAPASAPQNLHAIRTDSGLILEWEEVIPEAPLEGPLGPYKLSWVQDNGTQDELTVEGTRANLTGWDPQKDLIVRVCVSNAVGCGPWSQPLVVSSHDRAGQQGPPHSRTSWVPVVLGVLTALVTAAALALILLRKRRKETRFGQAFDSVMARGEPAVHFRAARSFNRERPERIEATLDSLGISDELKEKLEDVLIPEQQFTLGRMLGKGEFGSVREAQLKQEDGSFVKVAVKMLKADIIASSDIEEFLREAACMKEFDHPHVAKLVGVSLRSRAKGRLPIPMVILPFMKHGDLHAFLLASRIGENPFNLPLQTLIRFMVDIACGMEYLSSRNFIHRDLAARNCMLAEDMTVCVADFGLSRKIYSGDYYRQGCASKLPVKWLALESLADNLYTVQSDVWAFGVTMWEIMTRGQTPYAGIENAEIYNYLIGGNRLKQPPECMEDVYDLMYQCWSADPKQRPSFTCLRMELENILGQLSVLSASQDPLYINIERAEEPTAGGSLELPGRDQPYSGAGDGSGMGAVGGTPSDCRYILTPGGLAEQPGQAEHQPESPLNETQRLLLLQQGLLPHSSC", "chain of UniProt Q9HBY8 (whole entry, looked up)": "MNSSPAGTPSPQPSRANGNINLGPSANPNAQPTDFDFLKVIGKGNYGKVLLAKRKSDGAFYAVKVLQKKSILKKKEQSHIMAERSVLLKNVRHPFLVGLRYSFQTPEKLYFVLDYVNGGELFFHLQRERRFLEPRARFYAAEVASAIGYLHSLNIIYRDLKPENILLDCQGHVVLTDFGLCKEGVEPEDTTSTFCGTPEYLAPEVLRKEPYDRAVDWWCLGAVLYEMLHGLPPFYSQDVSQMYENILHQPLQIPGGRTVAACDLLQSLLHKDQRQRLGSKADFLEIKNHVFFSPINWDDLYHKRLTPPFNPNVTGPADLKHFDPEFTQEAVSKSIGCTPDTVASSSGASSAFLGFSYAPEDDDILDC"}
{"data": "Block 1", "Compound": "CC(C)(C)n1nc(Cc2cccc3ccccc23)c2c(N)ncnc21", "effect on": "enzyme activity", "action": "inhibitor", "concentration": "0.5 µM", "relative to": "control"}
{"target": "SGK2 (Homo sapiens, UniProt Q9HBY8)", "remaining activity": "98.7%"}
{"target": "CAMK1 (Homo sapiens, UniProt Q14012)", "remaining activity": "92.6%"}
{"target": "MAP3K20 (Homo sapiens, UniProt Q9NYL2)", "remaining activity": "90.9%"}
{"target": "TYRO3 (Homo sapiens, UniProt Q06418)", "remaining activity": "97.7%"}
{"target": "RPS6KA3 (Homo sapiens, UniProt P51812)", "remaining activity": "95.3%"}
{"target": "EPHA2 (Homo sapiens, UniProt P29317)", "remaining activity": "42%"}
{"target": "IGF1R (Homo sapiens, UniProt P08069)", "remaining activity": "98.5%"}
{"target": "SIK2 (Homo sapiens, UniProt Q9H0K1)", "remaining activity": "93%"}
{"target": "CSNK1E (Homo sapiens, UniProt P49674)", "remaining activity": "1.53%"}
{"target": "PAK6 (Homo sapiens, UniProt Q9NQU5)", "remaining activity": "100%"}
{"target": "TEC (Homo sapiens, UniProt P42680)", "remaining activity": "111%"}
{"target": "SRPK1 (Homo sapiens, UniProt Q96SB4)", "remaining activity": "104%"}
{"target": "CLK2 (Homo sapiens, UniProt P49760)", "remaining activity": "90.2%"}
{"target": "CLK1 (Homo sapiens, UniProt P49759)", "remaining activity": "97.7%"}
{"target": "Cyclin-dependent kinase 2, with cyclin E (CDK2, Homo sapiens, UniProt P24941)", "remaining activity": "89.6%"}
{"target": "PRKCQ (Homo sapiens, UniProt Q04759)", "remaining activity": "103%"}
{"target": "PAK1 (Homo sapiens, UniProt Q13153)", "remaining activity": "86%"}
{"target": "PRKCZ (Homo sapiens, UniProt Q05513)", "remaining activity": "90.3%"}
{"target": "CSNK1D (Homo sapiens, UniProt P48730)", "remaining activity": "53.7%"}
{"target": "EPHA6 (Homo sapiens, UniProt Q9UF33)", "remaining activity": "9.38%"}
{"target": "CAMKK1 (Homo sapiens, UniProt Q8N5S9)", "remaining activity": "84.6%"}
{"target": "FLT1 (Homo sapiens, UniProt P17948)", "remaining activity": "85.3%"}
{"target": "JAK1 (Homo sapiens, UniProt P23458)", "remaining activity": "90.4%"}
{"data": "Block 2", "species": "human", "matrix": "microsomes or S9", "concentration": "2 µM", "time": "0.5 h"}
{"SMILES": "Cc1ccccc1Nc1nc(N)nc(-c2oc3ccccc3c2C)n1", "remaining compound [%]": 84.9}
{"SMILES": "COc1cc(=O)n2c(c1C(=O)NCc1ccc(F)cc1Cl)CCCC2", "remaining compound [%]": 4.51}
{"SMILES": "Cc1cn2c(CNc3ncnc4c3cnn4C)c(C)nc2s1", "remaining compound [%]": "> 100"}
{"SMILES": "CC(=O)c1cc(CN2CCOCC2CC(=O)NCCc2ncnn2C)cs1 (stereo not shown)", "remaining compound [%]": 89.2}
{"SMILES": "Cn1cc(-c2noc(-c3n[nH]c4ccccc34)n2)ccc1=O", "remaining compound [%]": 29.9}
{"SMILES": "O=C(c1cccs1)N1c2nc(C3CCCCC3)nn2C2(CCCCC2)[C@@H]2CCCC[C@@H]21", "remaining compound [%]": 0.236}
{"data": "Block 3", "Compound": "Cc1nc(N2CC[C@@H](O)C2)ncc1-c1cc(C(F)(F)F)cc2[nH]ncc12", "technique": "competition with immobilised ligand", "concentration": "1 µM"}
{"target": "STK33 (Homo sapiens, UniProt Q9BYT3)", "effect on": "binding", "remaining binding": "100%"}
{"target": "FLT3 (Homo sapiens, UniProt P36888, ITD)", "effect on": "binding", "remaining binding": "100%"}
{"target": "MTOR (Homo sapiens, UniProt P42345)", "effect on": "cell-free assay", "remaining binding": "100%"}
{"target": "DMPK (Homo sapiens, UniProt Q09013)", "effect on": "binding", "remaining binding": "80%"}
{"target": "NEK5 (Homo sapiens, UniProt Q6P3R8)", "effect on": "binding", "remaining binding": "100%"}
{"target": "PIK3CA (Homo sapiens, UniProt P42336)", "effect on": "cell-free assay", "remaining binding": "100%"}
{"target": "MAP3K11 (Homo sapiens, UniProt Q16584)", "effect on": "binding", "remaining binding": "100%"}
{"target": "PIK3CG (Homo sapiens, UniProt P48736)", "effect on": "cell-free assay", "remaining binding": "82%"}
{"target": "MKNK2 (Homo sapiens, UniProt Q9HBH9)", "effect on": "binding", "remaining binding": "76%"}
{"target": "SIK2 (Homo sapiens, UniProt Q9H0K1)", "effect on": "binding", "remaining binding": "100%"}
{"target": "eIF-2-alpha kinase GCN2, C-terminal kinase domain (EIF2AK4, Homo sapiens, UniProt Q9P2K8, S808G)", "effect on": "binding", "remaining binding": "76%"}
{"target": "RET (Homo sapiens, UniProt P07949)", "effect on": "cell-free assay", "remaining binding": "84%"}
{"target": "EPHB4 (Homo sapiens, UniProt P54760)", "effect on": "cell-free assay", "remaining binding": "100%"}
{"target": "ITK (Homo sapiens, UniProt Q08881)", "effect on": "cell-free assay", "remaining binding": "64%"}
{"target": "Tyrosine-protein kinase ABL1, non-phosphorylated (ABL1, Homo sapiens, UniProt P00519, F317L)", "effect on": "binding", "remaining binding": "100%"}
{"target": "PAK3 (Homo sapiens, UniProt O75914)", "effect on": "cell-free assay", "remaining binding": "72%"}
{"data": "Further values, each from its own experiment"}
{"Compound": "CC(C)n1cnc(-c2ccc(F)cc2)c1-c1ncc(C(=O)Nc2ccc(N3CCN(C)CC3)cc2)[nH]1", "species": "human, idiopathic pulmonary fibrosis", "dose": "60 mg once daily", "notes": "trial, treatment-emergent", "measurement": "patients with muscular weakness", "result": "0%"}
